Results pooled from the literature.
Values joined by “and” are separate records of one study, mostly repeats; a detail may differ. ± marks the error that the study gave.
TDP1: Tyrosyl-DNA phosphodiesterase 1 (TDP1, Homo sapiens, UniProt Q9NUW8)
Sequence of UniProt Q9NUW8 (whole entry, looked up): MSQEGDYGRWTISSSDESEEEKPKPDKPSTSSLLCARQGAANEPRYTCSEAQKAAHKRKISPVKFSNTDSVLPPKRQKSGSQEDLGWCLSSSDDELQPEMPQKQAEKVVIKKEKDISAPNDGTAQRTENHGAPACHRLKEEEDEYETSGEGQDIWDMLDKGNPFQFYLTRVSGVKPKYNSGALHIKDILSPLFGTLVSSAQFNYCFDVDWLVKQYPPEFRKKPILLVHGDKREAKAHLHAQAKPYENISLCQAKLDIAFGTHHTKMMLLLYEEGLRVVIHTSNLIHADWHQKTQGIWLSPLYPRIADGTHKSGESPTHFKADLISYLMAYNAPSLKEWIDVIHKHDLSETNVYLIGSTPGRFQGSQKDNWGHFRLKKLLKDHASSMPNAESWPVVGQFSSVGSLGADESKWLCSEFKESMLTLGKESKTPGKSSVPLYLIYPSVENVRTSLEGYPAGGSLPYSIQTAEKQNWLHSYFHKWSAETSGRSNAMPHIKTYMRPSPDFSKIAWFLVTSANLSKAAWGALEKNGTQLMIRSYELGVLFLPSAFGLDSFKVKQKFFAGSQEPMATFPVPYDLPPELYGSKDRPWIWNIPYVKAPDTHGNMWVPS
Sequence of UniProt P52597 (whole entry, looked up): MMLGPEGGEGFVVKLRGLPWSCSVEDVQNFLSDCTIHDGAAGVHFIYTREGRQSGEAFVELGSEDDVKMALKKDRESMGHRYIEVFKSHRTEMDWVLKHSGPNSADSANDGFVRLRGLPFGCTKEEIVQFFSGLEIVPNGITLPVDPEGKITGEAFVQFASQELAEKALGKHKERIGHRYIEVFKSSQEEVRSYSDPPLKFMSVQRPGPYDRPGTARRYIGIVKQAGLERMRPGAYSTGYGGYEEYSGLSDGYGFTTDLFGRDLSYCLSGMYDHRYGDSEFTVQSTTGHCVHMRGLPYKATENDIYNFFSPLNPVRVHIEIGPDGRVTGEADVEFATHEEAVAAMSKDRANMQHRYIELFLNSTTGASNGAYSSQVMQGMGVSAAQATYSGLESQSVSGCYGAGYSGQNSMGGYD

Compound | tested on | assay | system | conditions | scale | measurement | value
O=C(O)c1ccc(Nc2c(-c3ccc(CON=Cc4ccc(-c5cc(C(F)(F)F)ccn5)cc4)cc3)nc3cc(-c4ccccc4)ccn23)cc1 (mixture of isomers) | TDP1 | enzyme activity, inhibitor |  | 100 µM, unpurified compound |  | inhibition | 53.1%
CN(C(=O)C(C)(C)c1cc(C(F)(F)F)cc(C(F)(F)F)c1)c1cnc(N2C[C@H]3COCCN3C[C@H]2CO)cc1-c1ccc(F)cc1CO |  |  | human liver microsomes | formation of M18/21 |  | Vmax | 249 pmol/min/mg
O=C(O)c1ccc(Nc2c(-c3ccccc3)nc3ccc(CON=Cc4ccc(OC(=O)c5ccc6c(c5)OCO6)cc4)cn23)cc1 | TDP1 | enzyme activity, inhibitor |  | 100 µM, unpurified compound |  | inhibition | 25.1%
COc1cc2nc(N(CCCN(C)C)C(=O)c3ccc(S(=O)(=O)N4CCc5ccccc54)cc3)sc2cc1OC.Cl |  | reporter mRNA translation, inhibitor, measured: Renilla luciferase mRNA | Trypanosoma cruzi cell extract | concentration not given | reference: positive and negative controls | translation activity | 96.9% and 89.4%
Nc1ncc(-c2cc(-c3cnn(CC(F)(F)F)c3)ncc2F)nc1C(=O)NC1CNCC(F)C1 (stereo not drawn) | p38-gamma | KINOMEscan competition binding |  | 1 µM | reference: DMSO control | remaining binding | 100%
[2H]C([2H])([18F])Oc1cc(C(=O)OCC2CCN(CCCC)CC2)ccc1N |  | PET SRTM | rhesus monkey, frontal cortex | baseline, unit not given | reference: cerebellum | BPND | 0.43 ± 0.13
CN1CCCNC(=O)c2cccc(c2)C(=O)NCCCN(C)CCCNc2cccc3c2C(=O)c2cccc(c2C3=O)NCCC1 | SAS | RNA-Seq, measured: ARV1 mRNA |  | 1 µM, 6 h | reference: untreated cells | log2 fold change | -0.83
CC(C)[C@H](NC(=O)[C@H](CC(=O)O)NC(=O)[C@@H](NC(=O)[C@H](Cc1c[nH]c2ccccc12)NC(=O)[C@H](CCC(=O)O)NC(=O)[C@H](C)NC(=O)[C@H](CC(=O)O)NC(=O)CNC(=O)[C@H](Cc1ccc(O)cc1)NC(=O)[C@H](Cc1ccc(OP(=O)(O)O)cc1)NC(=O)[C@H](Cc1ccc(O)cc1)NC(=O)CCNC(=O)c1ccc(C(=O)[O-])c(-c2c3ccc(=[N+](C)C)cc-3oc3cc(N(C)C)ccc23)c1)C(C)C)C(=O)N[C@@H](CO)C(=O)O |  | HPLC/LC-MS | PBS | concentration not given, 60 min, 37 °C, with: alkaline phosphatase 30 U/mL |  | dephosphorylation conversion | ~93%
C=CC(=O)Nc1cccc(Cn2ncc3cnc(Nc4cnn(CCOC)c4)nc32)c1 | LIMK2 human | binding, KINOMEscan |  | 100 nM | lower = stronger binding | percent of control | 91%
O=C(Nc1[nH]nc(-c2ccccn2)c1C1CC1)N1CC[C@@H](Cn2cc(C(F)(F)F)cn2)C1 |  | reporter mRNA translation, inhibitor, measured: Renilla luciferase mRNA | Trypanosoma cruzi cell extract | concentration not given | reference: positive and negative controls | translation activity | 87.9% and 84.6%
COC1CN([C@H]2CC[C@H]([C@@]3(C)Oc4c(Cl)cc(C(=O)NCc5c(SC)cc(C)[nH]c5=O)c(C)c4O3)CC2)C1 |  | RNA-seq, measured: RUNDC3A mouse homolog | mouse, HT-1376 xenograft, whole blood | dose not given | reference: vehicle | log2 fold change | 3.32
Cc1ncsc1-c1ccc(C(C)NC(=O)C2CC(O)CN2C(=O)C(NC(=O)CCCCCCCCCCN2CCCC(Nc3ncc(Cl)c(Nc4ccccc4S(=O)(=O)C(C)C)n3)C2)C(C)(C)C)cc1 (stereo not drawn) | 22Rv1 | RNA-seq, measured: TPSG1 mRNA |  | concentration not given | reference: DMSO | log2 fold change | -5.49
O=C(O)c1ccc(Nc2c(-c3ccccc3)nc3ccc(CON=Cc4ccc(COc5c(F)c(F)cc(F)c5F)o4)cn23)cc1 (mixture of isomers) | TDP1 | enzyme activity, inhibitor |  | 100 µM, unpurified compound |  | inhibition | 20.7%
CCCCCC(O)/C=C/C=O (stereo not drawn) | Heterogeneous nuclear ribonucleoprotein F (Homo sapiens, UniProt P52597) | competitive isoTOP-ABPP, measured: HNRPF cysteine peptide | Ramos soluble proteome | 100 µM, with: iodoacetamide probe | reference: DMSO over compound-treated, higher = stronger cysteine blockade | isoTOP-ABPP competition ratio | 1.4
CNS(=O)(=O)Nc1nccc(Cc2c(C)c3ccc(Oc4ncccc4F)cc3oc2=O)c1F | KALS-1 | cell viability |  | 7 days |  | IC50 | > 1000 nM
COc1ccc2ccccc2c1C=NOCc1ccc(-c2nc3cc(-c4ccccc4)ccn3c2Nc2ccc(C(=O)O)cc2)cc1 (mixture of isomers) | TDP1 | enzyme activity, inhibitor |  | 100 µM, unpurified compound |  | inhibition | 0.1%
O=C(Cn1ccnc1[N+](=O)[O-])NCc1ccccc1 |  | reporter mRNA translation, inhibitor, measured: Renilla luciferase mRNA | Trypanosoma cruzi cell extract | concentration not given | reference: positive and negative controls | translation activity | 101% and 91.3%
Cc1cc(F)ccc1-c1cc(N2C[C@H]3COC(O)CN3C[C@H]2CO)ncc1N(C)C(=O)C(C)(C)c1cc(C(F)(F)F)cc(C(F)(F)F)c1 (stereo partly drawn) |  |  | human liver microsomes | formation of M18/21 |  | Vmax | 79 pmol/min/mg

Repeated from above:
Compound | tested on | assay | system | conditions | scale | measurement | value
O=C(Nc1[nH]nc(-c2ccccn2)c1C1CC1)N1CC[C@@H](Cn2cc(C(F)(F)F)cn2)C1 |  | reporter mRNA translation, inhibitor, measured: Renilla luciferase mRNA | Trypanosoma cruzi cell extract | concentration not given | reference: positive and negative controls | translation activity | 87.9% and 84.6%
COC1CN([C@H]2CC[C@H]([C@@]3(C)Oc4c(Cl)cc(C(=O)NCc5c(SC)cc(C)[nH]c5=O)c(C)c4O3)CC2)C1 |  | RNA-seq, measured: RUNDC3A mouse homolog | mouse, HT-1376 xenograft, whole blood | dose not given | reference: vehicle | log2 fold change | 3.32
Cc1ncsc1-c1ccc(C(C)NC(=O)C2CC(O)CN2C(=O)C(NC(=O)CCCCCCCCCCN2CCCC(Nc3ncc(Cl)c(Nc4ccccc4S(=O)(=O)C(C)C)n3)C2)C(C)(C)C)cc1 (stereo not drawn) | 22Rv1 | RNA-seq, measured: TPSG1 mRNA |  | concentration not given | reference: DMSO | log2 fold change | -5.49
